Experimental data from different studies.
Lines come from different studies, so protocols differ. Several values in a cell are separate wells, animals, samples, runs or records. Numbers after ± are the reported error.
USP13 ZnF-UBD domain: Ubiquitin carboxyl-terminal hydrolase 13, ZnF-UBD domain (USP13, Homo sapiens, UniProt Q92995)
Chain of UniProt Q92995 (whole entry, looked up): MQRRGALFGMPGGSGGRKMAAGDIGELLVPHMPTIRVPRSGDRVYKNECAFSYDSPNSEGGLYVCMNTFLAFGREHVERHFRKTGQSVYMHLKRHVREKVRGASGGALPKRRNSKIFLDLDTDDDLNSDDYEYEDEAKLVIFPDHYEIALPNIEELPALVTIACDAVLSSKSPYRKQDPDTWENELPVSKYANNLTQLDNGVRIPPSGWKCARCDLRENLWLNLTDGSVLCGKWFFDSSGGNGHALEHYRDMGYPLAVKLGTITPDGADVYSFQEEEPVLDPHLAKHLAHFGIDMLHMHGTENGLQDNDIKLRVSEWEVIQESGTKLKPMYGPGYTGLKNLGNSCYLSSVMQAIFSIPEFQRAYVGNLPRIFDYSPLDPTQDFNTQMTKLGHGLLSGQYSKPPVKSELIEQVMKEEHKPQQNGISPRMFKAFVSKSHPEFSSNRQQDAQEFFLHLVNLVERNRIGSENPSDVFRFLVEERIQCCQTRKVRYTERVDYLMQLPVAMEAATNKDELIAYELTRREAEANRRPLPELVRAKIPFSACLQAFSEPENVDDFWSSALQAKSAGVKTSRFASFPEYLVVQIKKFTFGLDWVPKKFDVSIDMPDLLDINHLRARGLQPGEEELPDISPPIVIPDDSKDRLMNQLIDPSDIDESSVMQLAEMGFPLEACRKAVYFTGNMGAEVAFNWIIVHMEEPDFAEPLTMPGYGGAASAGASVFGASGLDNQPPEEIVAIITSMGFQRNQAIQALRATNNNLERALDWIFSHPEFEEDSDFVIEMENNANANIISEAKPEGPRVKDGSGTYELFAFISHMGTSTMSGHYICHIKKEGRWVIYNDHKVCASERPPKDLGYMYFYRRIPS

| Compound | target or system | assay | test system | conditions | scale | endpoint | result |
| --- | --- | --- | --- | --- | --- | --- | --- |
| Cc1noc(C)c1Cn1cc(N2C(=O)CN(Cc3cccc(O)c3)C2=O)cn1 | human blood lymphocytes | – | – | 200 µg/mL, 21 h | – | aberrant cells with gaps | 2.5% |
| O=C(C[C@@H](C(F)F)n1ccc(F)n1)N1CCC(O)(Cn2cnc3c(cnn3-c3ccc(F)cc3)c2=O)CC1 | CAPAN-1 parental | SRB | – | 0.009145 µM, 5 days | – | viability | 95.7% and 88.3% |
| Cn1cc(-c2ccc(-c3cncc(Cl)c3N3CCC4(CCNC4=O)CC3)cc2)cn1 | COLO 205 | gene expression, microarray, refers to: WWTR1 mRNA | – | concentration not given, 6 h | reference: untreated cells | log2 fold change | -2.94 |
| NS(=O)(=O)c1ccc(NCC(=O)O)cc1 | USP13 ZnF-UBD domain | – | – | – | – | Kd | > 1 mM |
| O=C(O)[C@H]1O[C@@H](Oc2cc3oc(-c4ccccc4)cc(=O)c3c(O)c2O)[C@H](O)[C@@H](O)[C@@H]1O | Caco-2 monolayers | – | – | 100 µg/mL, 2 h | reference: Papp(BL-AP) over Papp(AP-BL) | efflux ratio | 0.29 |
| COc1cccc(-c2n[nH]c(SCc3ccccn3)n2)c1OC | primary human lymphocytes | – | – | 0.5 mg/mL, 3 h | – | structural aberrations per 100 cells | 1 |
| COc1cc(/C=C/C=C2\SC(=S)NC2=O)cc(OC)c1O | HEK-293T | CellTiter-Glo | – | 40 µM, 24 h, unit not given | reference: untreated | viability | 1.03 and 0.958 |
| COc1ccc(-c2coc3cc(O)ccc3c2=O)cc1 | Caco-2 monolayers | apical to basolateral transport | – | 100 µg/mL, 2 h | – | amount transported | 3.68 ± 0.08% |
| CC[C@]1(O)C[C@H]2CN(CCc3c([nH]c4ccccc34)[C@@](C(=O)OC)(c3cc4c(cc3OC)N(C=O)[C@H]3[C@@](O)(C(=O)OC)[C@H](OC(C)=O)[C@]5(CC)C=CCN6CC[C@]43[C@@H]65)C2)C1 | rat DRG neurons (Sprague Dawley) | – | – | 40 nM, 48 h | – | neurite degeneration | 78.8% and 85.1% and 82.5% and 79.9% and 84.2% |
| CC(=O)OC[C@H]1O[C@H]2OC(C)CCCCCC/C=C\CCCCCCCC(=O)O[C@H]3[C@H](O)[C@@H](O)[C@H](O[C@@H]2[C@@H](O)[C@@H]1O)O[C@@H]3COC(C)=O (some centres unmarked) | sheep red blood cells | – | – | 1 h, 37 °C, 5% DMSO | – | HC50 | ~125 µg/mL |
| Cc1ccc(S(=O)(=O)Oc2ccc(NC(=O)c3cnccn3)cc2)cc1 | HEK293T | MTT | – | 100 µM, 24 h | – | viability | 82.7 ± 1.06% |
| O=C(O)CCc1ccc2c(c1)OCO2 | USP13 ZnF-UBD domain | – | – | – | – | Kd | > 1 mM |
| FC(F)(F)c1cc(CO[C@H]2CCCN[C@H]2c2ccccc2)cc(C(F)(F)F)c1 | PBMC | – | – | – | – | CC50 | > 25 µM |
| COc1cc(C2Oc3cc([C@H]4Oc5cc(O)cc(O)c5C(=O)[C@@H]4O)ccc3OC2CO)ccc1O (some centres unmarked) | Caco-2 monolayers | apical to basolateral transport | – | 100 µg/mL, 2 h | – | amount transported | 15 ± 1% |
| Cc1nn(-c2nc3c(F)cc(F)cc3s2)c(O)c1C(c1ccc(C(F)(F)F)cc1)c1c(C)nn(-c2nc3c(F)cc(F)cc3s2)c1O | RAW-ISG | cell viability | – | 24 h | – | CC50 | 52.4 µM and 58.9 µM |
| O=c1cc(-c2ccccc2)oc2cc(O)c(O)c(O)c12 | Caco-2 monolayers | basolateral to apical transport | – | 100 µg/mL, 2 h | – | amount transported | 2.18% |
| CCOc1cc2ncc(C#N)c(Nc3ccc(OCc4ccccn4)c(Cl)c3)c2cc1NC(=O)/C=C/CN(C)C | MDCK-II cells, parental | bidirectional transwell permeability | – | 1 µM, 1 h, pH 7.4 | – | efflux ratio | 1.12 ± 1.15 |
| CC1=CC[C@H]2[C@@H]([C@@H]1CC[C@H]1[C@]3(C)CC[C@H](O)C(C)(C)O[C@H]3CC[C@]1(C)O)C(C)(C)CC[C@]2(C)O | ABCG2-482-R2 transfected HEK293 | cell viability, MTT | – | 72 h | – | IC50 | > 50 µM |
| O=c1c(-c2ccc(O)cc2)coc2c([C@@H]3O[C@H](CO)[C@@H](O)[C@H](O)[C@H]3O)c(O)ccc12 | Caco-2 monolayers | – | – | 100 µg/mL, 2 h | reference: Papp(BL-AP) over Papp(AP-BL) | efflux ratio | 0.12 ± 0.04 |
| C[C@H](CCC(=O)N[C@@H](Cc1ccc(O)cc1)C(=O)O)[C@H]1CC[C@H]2[C@@H]3[C@H](O)C[C@@H]4C[C@H](O)CC[C@]4(C)[C@H]3C[C@H](O)[C@]12C | HEK293T | LC-MS | serum-free conditioned medium | 100 µM, overnight | reference: non-conditioned medium | recovery | 99% |
